{"data": "Results pooled from the literature", "note": "Numbered parts are unrelated; each lists some results of a single study. Changes are numbered by the printed parent chain."}
{"data": "Sample 1", "target": "Sal-like protein 4, full length isoform A (SALL4, Homo sapiens, UniProt Q9UJQ4, residues 1-1053)", "method": "universal PBM", "form": "double-stranded DNA, one strand shown", "matrix": "in vitro", "tested at": "600 nM", "setting": "8-mer, flanks averaged, mean of replicates", "direction": "higher = stronger binding", "sequence of UniProt Q9UJQ4 (whole entry, looked up)": "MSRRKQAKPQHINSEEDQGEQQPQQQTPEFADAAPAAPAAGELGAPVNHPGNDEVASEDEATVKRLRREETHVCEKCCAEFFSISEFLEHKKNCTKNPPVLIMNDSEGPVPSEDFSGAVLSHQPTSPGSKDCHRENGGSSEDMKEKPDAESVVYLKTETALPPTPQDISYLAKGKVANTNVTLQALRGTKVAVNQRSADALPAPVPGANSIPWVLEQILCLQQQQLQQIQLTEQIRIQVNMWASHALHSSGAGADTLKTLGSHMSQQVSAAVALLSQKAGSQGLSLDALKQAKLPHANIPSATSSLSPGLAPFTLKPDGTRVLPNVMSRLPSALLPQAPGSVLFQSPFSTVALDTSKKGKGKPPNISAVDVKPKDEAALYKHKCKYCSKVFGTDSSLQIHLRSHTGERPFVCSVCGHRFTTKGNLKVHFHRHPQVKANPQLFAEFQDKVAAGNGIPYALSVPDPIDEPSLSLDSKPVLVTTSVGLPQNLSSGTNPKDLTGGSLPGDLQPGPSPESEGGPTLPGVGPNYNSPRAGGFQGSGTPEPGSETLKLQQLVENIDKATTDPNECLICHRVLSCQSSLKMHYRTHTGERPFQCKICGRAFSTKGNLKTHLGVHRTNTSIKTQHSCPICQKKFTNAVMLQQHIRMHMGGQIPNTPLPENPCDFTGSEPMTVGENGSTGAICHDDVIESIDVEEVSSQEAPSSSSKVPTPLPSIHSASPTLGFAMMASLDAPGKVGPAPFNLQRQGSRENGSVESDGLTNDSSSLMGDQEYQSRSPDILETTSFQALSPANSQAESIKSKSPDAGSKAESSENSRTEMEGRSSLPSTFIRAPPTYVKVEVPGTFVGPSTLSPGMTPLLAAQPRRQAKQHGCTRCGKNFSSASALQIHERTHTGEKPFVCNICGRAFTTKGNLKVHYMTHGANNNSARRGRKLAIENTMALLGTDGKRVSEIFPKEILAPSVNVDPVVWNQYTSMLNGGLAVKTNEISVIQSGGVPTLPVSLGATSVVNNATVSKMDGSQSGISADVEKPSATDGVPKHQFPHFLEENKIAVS"}
{"Strand": "CCGAATGA", "E-score": 0.119}
{"Strand": "AGTTTATA", "E-score": 0.358}
{"Strand": "AAGCTTAC", "E-score": -0.0166}
{"Strand": "CGTGGATA", "E-score": 0.0237}
{"Strand": "GACCTCGA", "E-score": -0.0973}
{"Strand": "AGAAGGAT", "E-score": 0.0624}
{"Strand": "GACCCCCC", "E-score": -0.335}
{"Strand": "CGTCACAC", "E-score": -0.134}
{"Strand": "CCGCAGGA", "E-score": -0.299}
{"Strand": "ACCTTCGT", "E-score": -0.00617}
{"Strand": "GCGGCAGC", "E-score": -0.301}
{"data": "Sample 2", "target": "RNA binding protein fox-1 homolog 2, RRM domain, GST-SBP tag (RBFOX2, Homo sapiens, UniProt O43251-10, residues 100-194)", "method": "RNA Bind-n-Seq", "form": "RNA", "matrix": "in vitro", "tested at": "365 nM", "setting": "natural RNA segment, single round, ends assumed", "baseline": "no-protein control", "direction": "higher = stronger binding", "shared flanks, not repeated": "GGGAGUUCUACAGUCCGACGAUC … UGGAAUUCUCGGGUGCCAA", "Construct (chain)": "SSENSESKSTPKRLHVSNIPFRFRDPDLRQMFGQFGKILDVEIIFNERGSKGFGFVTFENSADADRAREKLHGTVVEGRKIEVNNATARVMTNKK"}
{"Strand": "ACGGGCAAAGCAGAGAUCUGGUUUGAAAGCUGGGGAAAUUGAGAAGCCAGAUCGAUUUGACUUUGCUUCCAUGCUGUGUGUUCUGAAAGGACAUGGCUCUAAAAUUUCCU", "RBNS enrichment (R)": 0.554}
{"Strand": "CUGUGUGUGGGUGAUUGGAUGUGGGGGUGGGGCCCGUGGAGAGCCGGUGCCCCUCCCCAUCUCCCCGUGCCUGUAUCUAAUAUAUAAAUAUAGAGAUGUGUAUAUGGAUG", "RBNS enrichment (R)": 0.983}
{"Strand": "UCAGAGCUGGGUUCAAAAAGAAAAUUCUAGUGUCUAUAUGGAGCACUUGGUUUGGGGGUUCAGGCUCCAGGAUCAAUUUAGAGGGAUCCUUGAACCCAGCCCCGUGAACA", "RBNS enrichment (R)": 0.493}
{"Strand": "UCGAGUCAAGCUUAUCCCCAUUUUUGAGAGAGAAGGGGUACCUUCACAGACCGAUGCCCUUCUUACCCCAAGUUCCCAUAAACACUUGCAUGCAGAAGCACACAGGACAC", "RBNS enrichment (R)": 4.85}
{"Strand": "CUUCAUUAUUCUCUGCUAUAUAUAAAACGGUGCUGUGAGGGAGGGGAAAAGCAUUUUUCAAUAUAUUGAACUUUUGUACUGAAUUUUUUUGUAAUAAGCAAUCAAGGUUA", "RBNS enrichment (R)": 0.637}
{"Strand": "GAACAUCAGCCCAAAAGACAGAAGAUUUUAUCACUCAUCUACCCCAAAGAUAAAGUUGUAUUUUUUUCUUAGAAUGGCCUUUAAUUCCCUGUGGCAAUUACAGUUUUUGA", "RBNS enrichment (R)": 0.587}
{"Strand": "GUGGCAGGGGGUCACACCAGGCAGAACACCAUACACUCUCCAUCAGCUGUCUGUCUGGAUGUCACUGUCCUUCCCGGGGCUGUAUAGAGGGCCACAUGUGUUCACUAUUC", "RBNS enrichment (R)": 0.329}
{"Strand": "UGACUUUUAUGCUGUGGCAACUGUGACAGGCUAUUUUUUAGCAAAGAGUUAGACGUUUGUUAUCAUGCCCCAAAAUAGUUUGAGGUAACAUUUUUGGAGGUAGCUUCGUG", "RBNS enrichment (R)": 0.856}
{"Strand": "GCCUCAGCCACAAACCUAAAGGAGCUGCCUGUGUCUGACAGCACAGCCAUUCCAUCUCUUCCGUCCGUCUGUCUGUCUGGGUUGUUUUGUUUUGUUGUUGUUUUGAGACA", "RBNS enrichment (R)": 0.836}
{"data": "Sample 3", "target": "ABI1, truncated, D143A, DHFR fusion (Arabidopsis thaliana)", "method": "DHFR PCA, deep sequencing", "matrix": "yeast", "setting": "methotrexate growth selection, single substitutions", "with": "(+)-ABA 0 µM", "baseline": "wild-type fitted maximum", "direction": "higher = stronger binding", "starting sequence": "PYL1, truncated, DHFR fusion (Arabidopsis thaliana); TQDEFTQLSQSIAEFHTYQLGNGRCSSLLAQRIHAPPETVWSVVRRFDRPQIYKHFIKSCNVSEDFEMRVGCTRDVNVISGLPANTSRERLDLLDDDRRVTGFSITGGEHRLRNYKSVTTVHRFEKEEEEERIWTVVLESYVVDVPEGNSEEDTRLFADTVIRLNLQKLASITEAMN"}
{"Substitution": "S63W", "relative binding score [%]": 13.1}
{"Substitution": "H34M", "relative binding score [%]": 37.9}
{"Substitution": "V43R", "relative binding score [%]": -1.12}
{"Substitution": "Q7G", "relative binding score [%]": 27.6}
{"Substitution": "P50Y", "relative binding score [%]": 3.47}
{"Substitution": "L20G", "relative binding score [%]": 22.8}
{"Substitution": "R32G", "relative binding score [%]": -0.0798}
{"Substitution": "T120I", "relative binding score [%]": -7.86}
{"Substitution": "P83K", "relative binding score [%]": 13.5}
{"Substitution": "F15Q", "relative binding score [%]": 1.66}
{"data": "Further values, each from its own experiment"}
{"Substance": "PhoQ, residues 284 288 289 292 302 303 QWQEDG", "target": "PhoP, residues 12 14 15 18 19 STWGI (Escherichia coli, UniProt P23836)", "test": "Sort-seq, item: YFP reporter", "system": "E. coli", "setting": "PhoQ-PhoP variant library, with: 10 µM Mg2+", "scale": "baseline: high Mg2+ state, higher = stronger signaling", "measurement": "fold induction", "value": 1.17}
{"note": "A few entries again (sample 2):"}
{"Strand": "CUGUGUGUGGGUGAUUGGAUGUGGGGGUGGGGCCCGUGGAGAGCCGGUGCCCCUCCCCAUCUCCCCGUGCCUGUAUCUAAUAUAUAAAUAUAGAGAUGUGUAUAUGGAUG", "RBNS enrichment (R)": 0.983}
{"Strand": "ACGGGCAAAGCAGAGAUCUGGUUUGAAAGCUGGGGAAAUUGAGAAGCCAGAUCGAUUUGACUUUGCUUCCAUGCUGUGUGUUCUGAAAGGACAUGGCUCUAAAAUUUCCU", "RBNS enrichment (R)": 0.554}
